Assay results gathered from unrelated publications.
Parts stem from different laboratories: compare values within a part only. ± gives the spread as reported.

Set 1
Target: Cellular tumor antigen p53, DNA-binding domain (TP53, Homo sapiens, UniProt P04637, M133L/N239Y/N268D/V203A/Y220C)
Method: differential scanning fluorimetry
Concentration: 250 µM
Time: 24 h
| Structure (SMILES) | ΔTm |
| --- | --- |
| Cc1nc(C#N)cnc1Cl | 4.45 °C |
| N#Cc1cnc(Br)cn1 | 2.65 °C |
| N#Cc1cc(C(F)(F)F)c(Cl)nc1Cl | 3 °C |

Mixed results
CDK2 with cyclin A: Cyclin-dependent kinase 2, with cyclin A (CDK2, Homo sapiens, UniProt P24941)
GRM2: Metabotropic glutamate receptor 2 (GRM2, Homo sapiens, UniProt Q14416)
Chain of UniProt Q14416 (whole entry, looked up): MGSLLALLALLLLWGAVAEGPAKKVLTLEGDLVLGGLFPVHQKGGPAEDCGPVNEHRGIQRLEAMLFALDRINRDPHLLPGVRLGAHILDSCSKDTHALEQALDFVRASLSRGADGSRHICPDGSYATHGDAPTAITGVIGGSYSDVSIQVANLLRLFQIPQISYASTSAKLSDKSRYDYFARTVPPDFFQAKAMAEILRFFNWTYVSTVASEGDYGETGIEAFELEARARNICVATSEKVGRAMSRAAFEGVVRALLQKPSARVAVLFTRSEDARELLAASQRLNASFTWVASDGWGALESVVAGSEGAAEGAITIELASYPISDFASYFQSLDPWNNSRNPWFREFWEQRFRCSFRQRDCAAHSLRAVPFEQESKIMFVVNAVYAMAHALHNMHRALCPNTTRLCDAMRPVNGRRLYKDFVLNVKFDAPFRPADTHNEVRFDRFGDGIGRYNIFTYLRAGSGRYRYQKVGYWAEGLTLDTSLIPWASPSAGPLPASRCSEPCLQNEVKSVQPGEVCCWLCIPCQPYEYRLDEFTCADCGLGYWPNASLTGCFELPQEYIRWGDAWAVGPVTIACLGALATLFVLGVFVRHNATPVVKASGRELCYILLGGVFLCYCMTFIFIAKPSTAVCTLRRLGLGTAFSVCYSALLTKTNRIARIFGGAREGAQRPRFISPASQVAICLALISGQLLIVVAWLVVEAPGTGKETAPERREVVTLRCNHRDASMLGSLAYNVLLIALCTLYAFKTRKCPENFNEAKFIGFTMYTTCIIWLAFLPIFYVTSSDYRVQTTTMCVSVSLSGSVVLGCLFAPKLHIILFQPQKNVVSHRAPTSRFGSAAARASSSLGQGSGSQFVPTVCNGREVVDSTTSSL
crk3: crk3 (Leishmania mexicana, UniProt O15851)
| Structure (SMILES) | target or system | test | test system | setting | how to read | measurement | value |
| --- | --- | --- | --- | --- | --- | --- | --- |
| Cn1ccc2c(-c3ccc4nc(NC(=O)C5CCCCC5)nn4c3)cccc21 | CDK2 with cyclin A | enzyme activity, inhibitor |  |  |  | IC50 | > 100 µM |
| Cc1cc(Oc2ccc(-c3ccn4c(CC5CC5)nnc4c3C(F)(F)F)cc2F)ccn1 | GRM2 | GTPγS binding, positive allosteric modulator |  | added: EC20 glutamate | reference: control glutamate response | Emax | 269 ± 45% |
| Cc1cccc(-c2ccc3nc(NC(=O)C4CCCCC4)nn3c2)c1 | CDK2 with cyclin A | enzyme activity, inhibitor |  |  |  | IC50 | > 100 µM |
| CCOCc1nnc2c(C(F)(F)F)c(-c3ccc4[nH]ccc4c3)ccn12 | GRM2 | GTPγS binding, positive allosteric modulator |  | added: EC20 glutamate | reference: control glutamate response | Emax | 269 ± 11% |
| O=C(O)COc1ccc(Br)cc1/C=N/NC(=O)c1ccc(Cl)cc1 |  | Racine scale 0-5 | male mice, pilocarpine-induced seizures | oral, 20 mg/kg, 0.5 h after pilocarpine, unit not given, added: pilocarpine 300 mg/kg i.p. | higher = more severe | seizure severity | 2.5 ± 0.53 |
| Cc1ccc(Oc2ccc(-c3ccn4c(CC5CC5)nnc4c3C(F)(F)F)cc2F)c(C)n1 |  |  | male Sprague Dawley rat, brain and plasma | subcutaneous, 10 mg/kg, 2 h | reference: brain over plasma | tissue/plasma ratio | 0.8 |
| Cc1cccc(-c2ccc3nc(NC(=O)CCc4ccccc4)nn3c2)c1 | crk3 | enzyme activity, inhibitor, radiometric |  |  |  | IC50 | 0.03 µM |
| O=C(O)COc1ccc(Br)cc1C=NNC(=O)Cc1ccccc1 (mixture of isomers) |  | ELISA | mouse, pilocarpine seizure model, hippocampus | oral, 20 mg/kg | reference: pilocarpine group | glutamate level | 61.5 % reduction |
| FC(F)(F)c1c(-c2ccc(NC3CCOCC3)c(Cl)c2)ccn2c(CC3CC3)nnc12 | GRM2 | GTPγS binding, positive allosteric modulator |  | added: EC20 glutamate |  | EC50 | 0.019 µM |
| Cc1cccc(C)c1-c1ccc2nc(NC(=O)C3CCCCC3)nn2c1 | crk3 | enzyme activity, inhibitor, radiometric |  |  |  | IC50 | 19 µM |

Some of these lines once more (mixed results):
| Structure (SMILES) | target or system | test | test system | setting | how to read | measurement | value |
| --- | --- | --- | --- | --- | --- | --- | --- |
| Cc1cccc(C)c1-c1ccc2nc(NC(=O)C3CCCCC3)nn2c1 | crk3 | enzyme activity, inhibitor, radiometric |  |  |  | IC50 | 19 µM |
